{"data": "Assay results collected from several papers", "note": "Numbered parts are unrelated; each lists some results of a single study. Changes are numbered by the printed parent chain.", "UniProt P28223, sequence (whole entry, looked up)": "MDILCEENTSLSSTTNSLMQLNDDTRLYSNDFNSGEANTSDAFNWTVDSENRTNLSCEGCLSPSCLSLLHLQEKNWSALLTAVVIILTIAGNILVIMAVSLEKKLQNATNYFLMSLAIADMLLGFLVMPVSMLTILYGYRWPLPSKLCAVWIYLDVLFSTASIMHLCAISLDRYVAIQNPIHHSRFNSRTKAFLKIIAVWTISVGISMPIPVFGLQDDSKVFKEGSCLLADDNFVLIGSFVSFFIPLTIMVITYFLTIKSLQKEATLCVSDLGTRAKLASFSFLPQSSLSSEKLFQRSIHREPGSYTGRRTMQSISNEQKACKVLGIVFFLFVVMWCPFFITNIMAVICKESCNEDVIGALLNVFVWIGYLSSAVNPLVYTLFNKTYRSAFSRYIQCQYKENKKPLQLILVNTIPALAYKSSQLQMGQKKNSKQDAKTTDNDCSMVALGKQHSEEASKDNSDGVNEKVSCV"}
{"data": "Study 1", "target": "Fragile X messenger ribonucleoprotein 1, C-terminal low-complexity region (Fmr1, Mus musculus, UniProt P35922)", "technique": "RNA Bind-n-Seq", "molecule type": "RNA", "matrix": "in vitro", "concentration": "200 nM", "notes": "whole 134-nt RNA, ends assumed", "with": "150 mM LiCl", "reference": "input library", "direction": "higher = stronger binding", "library": "7-deaza-guanosine replaces G", "constant ends, left off below": "GGGAGUUCUACAGUCCGACGAUC … UGGAAUUCUCGGGUGUCAAGG"}
{"Oligonucleotide": "ACCAUGCAGGUGGGCAUCUUUGGGAAGUGGGGCAAGGGGGGGAUAGGGAGGGGGGUAACACUUUGGGAACAGGUGGUCCCUGGUCGUUUC", "log2 enrichment": 1.32}
{"Oligonucleotide": "UAACUCUAGAGGAGGAUCUGAUGGAUAUGGCAGUGGACGUGGAUUUGGGGAUGGCUAUAAUGGGUAUGGAGGAGGACCUGGAGGUGGCAA", "log2 enrichment": 0.295}
{"Oligonucleotide": "AGUCCUGUGCUACACAUCGUAUGUACCGAAUCAAACCCCCAAAUUUUUAAACCCAAAAAAGUAUUAUGUUACGCCGUUCGGAUCUGCACU", "log2 enrichment": 0.792}
{"Oligonucleotide": "CAAGUCCUGUGCUACACAUCGUAUGUACCGAAUCGGGAGGGUUUUUUUGGGUGGGAAAGUAUUAUGUUACGCCGUUCGGAUCUGCACUUC", "log2 enrichment": -0.456}
{"Oligonucleotide": "AGUCCUGUGCUACACAUCGUAUGUACCGAAUCGGAAAAAAAGGAAAAAAAGGUUUGGAAAGUAUUAUGUUACGCCGUUCGGAUCUGCACU", "log2 enrichment": -3.59}
{"Oligonucleotide": "CUUCUUGCAUGCUCGGCUCCGGACAGCUACGCUUCGGCAUGACGCAGACGGGCAGGCCACCCUGUUGAACCUCCUGCUGCGGAAUUACCU", "log2 enrichment": 0.00876}
{"Oligonucleotide": "AAGUCCUGUGCUACACAUCGUAUGUACCGAAUCGGGUUUGGGAAAGGGUUUUUGGGAAAGUAUUAUGUUACGCCGUUCGGAUCUGCACUU", "log2 enrichment": -1.81}
{"Oligonucleotide": "CACAGACAACACGCACCCACACAGACACAGAGGGAAGGGGUUGGGAUGGGGACAGGGUGCACAGCAGGACGGGGUAGGACCCCAGCCCCU", "log2 enrichment": -0.0436}
{"data": "Study 2", "target": "HLA class I histocompatibility antigen, A alpha chain, allele A*26:03 (Homo sapiens, UniProt P04439)", "read-out": "peptide-MHC binding", "molecule type": "peptide", "concentration": "concentration not given"}
{"Molecule": "AADFPGIAR", "binding": "inactive"}
{"Molecule": "KYFDDVTAF", "binding": "inactive"}
{"Molecule": "RTMPLSRFT", "binding": "inactive"}
{"Molecule": "TKDAERGKL", "binding": "inactive"}
{"Molecule": "IHIPGDTLF", "binding": "inactive"}
{"Molecule": "QWSPGPGRL", "binding": "inactive"}
{"Molecule": "VLYCVHQEI", "binding": "inactive"}
{"Molecule": "IISTNTLGK", "binding": "inactive"}
{"Molecule": "KRSTPFYTK", "binding": "inactive"}
{"Molecule": "FVFEATKLY", "binding": "inactive"}
{"Molecule": "STYQPLPLY", "binding": "inactive"}
{"Molecule": "ARHGEYAPF", "binding": "inactive"}
{"Molecule": "EMIWDPNGW", "binding": "inactive"}
{"Molecule": "KLYPNVDFY", "binding": "inactive"}
{"Molecule": "RRCPHHERC", "binding": "inactive"}
{"Molecule": "RELYYRLKF", "binding": "inactive"}
{"Molecule": "WFGHLASDW", "binding": "inactive"}
{"Molecule": "YECTSRHFT", "binding": "inactive"}
{"Molecule": "NQQVTNSKY", "binding": "inactive"}
{"Molecule": "CVFKFIVAK", "binding": "inactive"}
{"Molecule": "RSLYNTIAVLY", "binding": "inactive"}
{"Molecule": "LYNTIATLY", "binding": "inactive"}
{"Molecule": "TTARPRPPM", "binding": "inactive"}
{"Molecule": "RYSNFAWYF", "binding": "inactive"}
{"Molecule": "TVIRFWHAM", "binding": "active"}
{"data": "Study 3", "target": "CREBRF, bZIP domain (human)", "technique": "DHFR protein complementation", "matrix": "yeast", "notes": "single substitutions, most at no-binding floor", "reference": "wild-type JUN-FOS pair", "direction": "higher = stronger binding", "parent": "JUN, bZIP domain (human); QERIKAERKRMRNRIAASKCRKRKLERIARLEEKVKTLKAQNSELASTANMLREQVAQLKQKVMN; partner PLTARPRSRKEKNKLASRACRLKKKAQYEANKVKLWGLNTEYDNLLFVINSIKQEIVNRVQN"}
{"Substitution": "L52W", "binding fitness [natural log]": -1.53}
{"Substitution": "V35M", "binding fitness [natural log]": -1.53}
{"Substitution": "S43V", "binding fitness [natural log]": -1.42}
{"Substitution": "I28E", "binding fitness [natural log]": -1.49}
{"Substitution": "A40C", "binding fitness [natural log]": -1.45}
{"Substitution": "N42K", "binding fitness [natural log]": -1.38}
{"Substitution": "A46T", "binding fitness [natural log]": -1.46}
{"Substitution": "L45D", "binding fitness [natural log]": -1.28}
{"data": "Study 4", "target": "Interferon regulatory factor 3, full length, phosphomimetic (IRF3, Homo sapiens, UniProt Q14653, residues 1-427, S386D/S396D/S398D/S402D/T404D/S405D)", "technique": "protein-binding microarray", "molecule type": "double-stranded DNA, one strand shown", "matrix": "in vitro", "concentration": "2540 nM top", "notes": "60-bp whole probe", "with": "salmon DNA 0.4 mg/ml", "reference": "random background probes", "direction": "higher = stronger binding", "constant ends, left off below": "GCCTAGCAC … GTCTTGATTCGCTTGACGCTGCTG", "Target sequence (chain)": "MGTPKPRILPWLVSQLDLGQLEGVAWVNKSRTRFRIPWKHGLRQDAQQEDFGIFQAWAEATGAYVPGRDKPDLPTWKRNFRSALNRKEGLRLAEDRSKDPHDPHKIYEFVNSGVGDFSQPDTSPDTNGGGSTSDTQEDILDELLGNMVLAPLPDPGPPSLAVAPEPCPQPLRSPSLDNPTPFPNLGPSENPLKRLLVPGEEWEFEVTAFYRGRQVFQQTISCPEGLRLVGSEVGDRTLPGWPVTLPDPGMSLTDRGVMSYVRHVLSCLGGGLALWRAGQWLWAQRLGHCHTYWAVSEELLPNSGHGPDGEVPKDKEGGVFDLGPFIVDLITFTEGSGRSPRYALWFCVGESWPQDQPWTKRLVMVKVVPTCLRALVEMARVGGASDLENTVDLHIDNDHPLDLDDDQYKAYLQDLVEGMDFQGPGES"}
{"Oligonucleotide": "TTACATTTCAGTCTCGATTAGTGCTAG", "fitted relative affinity [z-score]": 2.48}
{"Oligonucleotide": "GACGGTCTCCTACTGCTGACGTGCTAG", "fitted relative affinity [z-score]": 1.13}
{"Oligonucleotide": "ATAATTTTTCTAGTGGTTGCGTGCTAG", "fitted relative affinity [z-score]": 0.283}
{"Oligonucleotide": "TCAGTTTTAAATTCTAAACTGTGCTAG", "fitted relative affinity [z-score]": 2.64}
{"Oligonucleotide": "GACGGACTGGGTATCGGGAAGTGCTAG", "fitted relative affinity [z-score]": -0.121}
{"Oligonucleotide": "GACGGTATCGACGATCGGGACGTGCTA", "fitted relative affinity [z-score]": 0.0806}
{"Oligonucleotide": "TCAGGTATGGCCTATTTAACTGTGCTA", "fitted relative affinity [z-score]": -0.323}
{"Oligonucleotide": "TTACGTATCCTTATCCTTTAGTGCTAG", "fitted relative affinity [z-score]": 4.64}
{"data": "Other studies, line by line"}
{"SMILES": "CC(=O)Nc1c(F)cc(C(=O)N[C@H]2CC[C@H](O)CC2)cc1O[C@@H](C)c1ccccc1", "target": "5-hydroxytryptamine receptor 2A (HTR2A, Homo sapiens, UniProt P28223)", "read-out": "binding", "technique": "radioligand binding", "concentration": "10 µM", "endpoint": "inhibition", "value": "-13.8%"}
{"note": "For quick reference, copied from above (study 3):"}
{"Substitution": "V35M", "binding fitness [natural log]": -1.53}
{"Substitution": "S43V", "binding fitness [natural log]": -1.42}
{"Substitution": "I28E", "binding fitness [natural log]": -1.49}
{"Substitution": "A40C", "binding fitness [natural log]": -1.45}
